Experimental data from different studies.
Every numbered part comes from another study and shows a few of its results, in no order. “And” joins repeats or separate records; there may be more than shown.
UniProt P54764, sequence (whole entry, looked up): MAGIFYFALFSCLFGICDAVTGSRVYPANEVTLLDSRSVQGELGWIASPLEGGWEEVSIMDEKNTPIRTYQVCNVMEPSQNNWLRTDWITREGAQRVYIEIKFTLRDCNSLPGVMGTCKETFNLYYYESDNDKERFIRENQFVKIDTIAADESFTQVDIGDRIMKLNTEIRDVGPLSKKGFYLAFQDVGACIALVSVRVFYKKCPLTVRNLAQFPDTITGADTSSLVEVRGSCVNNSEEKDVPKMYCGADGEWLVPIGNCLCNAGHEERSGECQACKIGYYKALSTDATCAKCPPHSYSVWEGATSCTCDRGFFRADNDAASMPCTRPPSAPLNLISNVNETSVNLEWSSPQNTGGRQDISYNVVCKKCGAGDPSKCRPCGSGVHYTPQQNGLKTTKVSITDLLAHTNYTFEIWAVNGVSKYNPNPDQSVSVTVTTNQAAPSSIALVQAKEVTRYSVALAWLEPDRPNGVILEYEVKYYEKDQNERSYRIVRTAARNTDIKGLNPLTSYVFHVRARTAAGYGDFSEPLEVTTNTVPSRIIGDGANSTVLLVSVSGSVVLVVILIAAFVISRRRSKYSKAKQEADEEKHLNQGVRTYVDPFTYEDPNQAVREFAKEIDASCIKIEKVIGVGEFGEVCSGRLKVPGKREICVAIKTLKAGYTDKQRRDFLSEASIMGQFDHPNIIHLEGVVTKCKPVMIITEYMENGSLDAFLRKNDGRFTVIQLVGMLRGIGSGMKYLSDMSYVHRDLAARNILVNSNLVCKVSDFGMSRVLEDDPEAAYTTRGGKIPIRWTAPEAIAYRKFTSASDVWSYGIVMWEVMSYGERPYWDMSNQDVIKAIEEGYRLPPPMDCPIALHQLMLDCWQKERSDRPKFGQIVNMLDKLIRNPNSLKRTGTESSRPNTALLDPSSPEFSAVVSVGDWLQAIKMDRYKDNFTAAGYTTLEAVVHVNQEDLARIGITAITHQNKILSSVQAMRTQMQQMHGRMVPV

Sample 1 — method: universal PBM; form: double-stranded DNA, one strand shown; medium: in vitro; concentration: not given; reading: higher = stronger binding
Target: Sal-like protein 4, full length isoform B (SALL4, Homo sapiens, UniProt Q9UJQ4-2, residues 1-616)
Setting: 8-mer, flanks averaged, mean of replicates
| Oligonucleotide | E-score |
| --- | --- |
| GAAACGGA | -0.00658 |
| AACCCACA | 0.0989 |
| CCTGTAGA | 0.0753 |
| AAGCACGT | 0.0399 |
| ATCTTACA | 0.112 |
| TACTAATA | 0.284 |
| CTGTCTAA | -0.055 |
| GGGCACGA | -0.0909 |

Sample 2 — method: RNA Bind-n-Seq; form: RNA; medium: in vitro; concentration: 15 pmol; setting: 4-mer, random 30-nt RNA, single round; added: 3 µM RocA, 2 mM AMP-PNP; baseline: mean of 4-mers; reading: higher = stronger binding
Target: Eukaryotic initiation factor 4A-I (EIF4A1, Homo sapiens, UniProt P60842, residues 1-406, full length assumed)
UniProt P60842, sequence (whole entry, looked up): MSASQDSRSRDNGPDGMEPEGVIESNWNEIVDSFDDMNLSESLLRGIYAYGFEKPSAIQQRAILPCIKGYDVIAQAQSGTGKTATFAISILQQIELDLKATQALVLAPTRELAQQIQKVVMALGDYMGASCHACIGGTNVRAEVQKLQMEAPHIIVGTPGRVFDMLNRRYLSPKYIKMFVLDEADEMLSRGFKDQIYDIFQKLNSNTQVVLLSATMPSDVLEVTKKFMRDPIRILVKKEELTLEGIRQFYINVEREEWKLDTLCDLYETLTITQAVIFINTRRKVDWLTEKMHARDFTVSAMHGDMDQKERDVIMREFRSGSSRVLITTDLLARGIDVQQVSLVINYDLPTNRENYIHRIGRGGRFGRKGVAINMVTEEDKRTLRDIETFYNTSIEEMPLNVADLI
| Oligonucleotide | 4-mer enrichment Z-score |
| --- | --- |
| GCGA | 1.27 |
| AGGU | 1.08 |
| AACA | -0.61 |
| GGAG | 1.95 |
| GGGA | 1.8 |
| AUUU | 0.134 |
| AAAA | 2.67 |
| GACC | -0.78 |

Sample 3 — method: RNA Bind-n-Seq; form: RNA; medium: in vitro; concentration: 100 nM; baseline: input RNA pool; reading: higher = stronger binding
Target: RING finger protein unkempt homolog, zinc fingers 1-6, SBP tag (UNK, Homo sapiens, UniProt Q9C0B0, residues 30-357)
UniProt Q9C0B0, sequence (30-357, looked up): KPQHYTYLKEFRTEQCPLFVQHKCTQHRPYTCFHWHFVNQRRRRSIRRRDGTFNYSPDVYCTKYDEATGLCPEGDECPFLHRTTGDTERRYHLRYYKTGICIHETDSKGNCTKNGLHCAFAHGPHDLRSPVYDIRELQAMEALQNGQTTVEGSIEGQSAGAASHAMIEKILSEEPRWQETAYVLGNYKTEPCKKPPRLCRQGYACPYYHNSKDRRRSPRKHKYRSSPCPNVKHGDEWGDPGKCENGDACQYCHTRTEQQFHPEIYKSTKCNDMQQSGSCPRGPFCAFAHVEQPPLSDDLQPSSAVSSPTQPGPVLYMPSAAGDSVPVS
Setting: RNA with constant flanks, vertebrate orthologous sites, ends assumed
All sequences stand within: GGGAGUUCUACAGUCCGACGAUC … CAACAGAGGAUUGAGCAUCA
| Oligonucleotide | bound/input enrichment [ratio] |
| --- | --- |
| GGUAGUCUGCGUAGGGGUGAGCAUUAACUUAUAAAGGAAUGAAAUGCUAAAAAAUCCUAUUAGUACUAAGUUUAGUGGGAGAAUUUACAUAAACUCUUUUUACAUAAUUCUAAAAUGAAA | 0.57 |
| UAUUUUUUUAUUUUAGGUAUCAUUGCCCAAUGCCCAAGAUCUUUUAUGUUCAGCUGACUGUAGGAAAUAAUGAAUUUUUUGGGGAAGGAAAAACUCGACAAGCUGCUAGACACAAUGCUG | 2.34 |
| CUGAAGCUUUGUGUUUGGCUGCACCUGCAUAAGCUGCUACAAAUAGAAUAAAGAAUUUCAUAGCCUGUAUCUAUCAUUUAGAUGCAUGGAAAAAAUGGGCUUUGCACACAAUGGGUUUGG | 2.79 |
| CCCCGAUUUUAGAUGUGAUAUCUAGGCUUUCAUUCCAGUUUGUUUUUGUCUUUUCUUGUUUAGAUACCAAUCUUUUAAAUUCUUGCAUUUUAGUAAGAAAGCUACCUUUUUAUGGAUGUU | 1.03 |
| UUCUUUUCCAGGUGGGAUGUAGUGGAAAAGUAAUAGGAAUUGAUCACAUUAAAGAGCUAGUUGAUGACUCCAUAAAUAAUGUCAGAAAGGACGACCCAACGCUUCUGUCCUCUGGCAGGG | 0.445 |
| GUCAUCUGACUGGAUGAAGACUGUUCCAAGUUACAACCAAACAAACAGCUCCAUGGACUUUAGAAAUUACAUGAUGAGAGACGAGACUCUGGAGCCGCUGCCCAAAAACUGGGAAAUGGC | 0.448 |
| CCCUCUGAACCCCAUAUCUUCUGUUUCAUAAUGCAGAAGUAUUCUUUUCAAUUAUAUUGUUAGUGGACUUCUUUUAAUUUUAGAGAAACUUUGAGUACAGAUACUGUGAGCUUACAUUGA | 1.34 |
| GCUGUUAAUGCACUGUUAUACCAGGAAUUGUCUGAAGUUAGUGUAAUCUAGAAGAUUUUAUAGUUUUAUUUUAAUGAAGUAUGGAUUGAAGCAAAGCUGUUAGGAGUAUGUAGUCUUUUA | 3 |

Sample 4 — observed: peptide-MHC binding; form: peptide; reading: direction not given
Target: HLA class I histocompatibility antigen, A alpha chain, allele A*80:01 (Homo sapiens, UniProt P04439)
| Sequence | z-score of log IC50 |
| --- | --- |
| GLYLYRFHV | 0.38 |
| DELWRGLLA | 0.38 |
| AVGVVCTGL | 0.38 |
| AQKLATKPV | 0.38 |
| DEYGPVFVE | 0.38 |
| FHARFVQAL | 0.38 |
| CLVSGLSSL | 0.38 |
| GIVSSMHYK | 0.38 |
| FPIPTEVVA | 0.38 |
| FTGWRDPGL | 0.38 |
| ATPHSVWVF | 0.38 |
| AARHKHQVM | 0.38 |
| GHMMVIFRL | 0.38 |
| APRRRDEEL | 0.38 |
| FLFDRLTNG | 0.38 |
| FHKRDMRLL | 0.38 |
| DGAEGINPY | 0.38 |
| FHERGYVKL | 0.38 |
| GGRKLKLTK | 0.38 |
| CASSSDWFY | 0.38 |
| FVDVGVSAL | 0.38 |
| FPASHMATY | 0.38 |
| AGGWVLWKV | 0.38 |
| FIVEHINAM | 0.38 |
| DETFVHSGF | 0.38 |

Single results of other studies
| SMILES | tested on | assay | conditions | scale | measurement | result |
| --- | --- | --- | --- | --- | --- | --- |
| COc1ccc(C(=O)N2CCCC2=O)cc1 | mouse MPNST tumor cells | high-content immunofluorescence imaging, item: nuclear SOX9 | 10 µM, 12 h, mean of 2 replicates | baseline: DMSO control, higher = more nuclear SOX9 | nuclear SOX9 intensity | 91.2 % of DMSO and 94.3 % of DMSO |
| COC[C@H]1OC(=O)c2coc3c2[C@@]1(C)C1=C(C3=O)[C@@H]2CCC(=O)[C@@]2(C)C[C@H]1OC(C)=O | Ephrin type-A receptor 4 (EPHA4, Homo sapiens, UniProt P54764) | enzyme activity, inhibitor | 0.5 µM | baseline: control | remaining activity | 96% |

Some of these lines once more (sample 4):
| Sequence | z-score of log IC50 |
| --- | --- |
| GIVSSMHYK | 0.38 |
| FPIPTEVVA | 0.38 |
| FTGWRDPGL | 0.38 |
| ATPHSVWVF | 0.38 |
| AARHKHQVM | 0.38 |
| GHMMVIFRL | 0.38 |
| APRRRDEEL | 0.38 |
| FLFDRLTNG | 0.38 |
